Measured values pooled from the literature.
Numbered parts are unrelated; each lists some results of a single study.

Block 1 — technique: protein-binding microarray; molecule type: double-stranded DNA, one strand shown; sample: in vitro; concentration: 250 nM; setting: 60-bp whole probe; with: salmon DNA 0.4 mg/ml; relative to: random background probes; reading: higher = stronger binding; quantity: log fluorescence; constant ends, left off below: GCCTAGCAC … GTCTTGATTCGCTTGACGCTGCTG
Target: Interferon regulatory factor 7, full length, phosphomimetic (IRF7, Homo sapiens, UniProt Q92985, residues 1-503, S101K/S471D/S472D/S475D/S476D/S477D/S483D/S484D/S487D)
Chain of UniProt Q92985 (whole entry, unmodified, looked up): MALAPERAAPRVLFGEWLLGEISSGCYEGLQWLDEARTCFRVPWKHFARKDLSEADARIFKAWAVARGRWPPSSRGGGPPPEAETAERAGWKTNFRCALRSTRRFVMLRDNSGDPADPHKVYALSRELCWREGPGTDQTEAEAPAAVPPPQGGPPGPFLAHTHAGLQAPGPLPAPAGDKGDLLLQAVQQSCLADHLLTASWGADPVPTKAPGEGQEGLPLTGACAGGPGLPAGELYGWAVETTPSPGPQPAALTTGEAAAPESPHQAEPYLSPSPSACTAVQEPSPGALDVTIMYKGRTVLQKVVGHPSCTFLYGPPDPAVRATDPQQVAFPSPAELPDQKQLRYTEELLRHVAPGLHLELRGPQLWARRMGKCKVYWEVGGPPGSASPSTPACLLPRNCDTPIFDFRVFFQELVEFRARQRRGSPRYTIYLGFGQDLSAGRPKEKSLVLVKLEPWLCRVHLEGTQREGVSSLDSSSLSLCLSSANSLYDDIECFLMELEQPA
GACGGACTGTACACTGGGGACGTGCTA: -0.597 z-score
TCAAGTTCATGTTTTGGACTGTGCTAG: 0.448 z-score
TTAGGTCTCCCTTTCCTTTAGTGCTAG: 0.968 z-score
GACGATATCAGACTGGACACGTGCTAG: -0.0787 z-score
TTCGGACTGGACACTGGGTTAGTGCTA: -0.704 z-score
GACGAACTGAGACTGGAGGCGTGCTAG: -0.278 z-score
CCATCTCTCAAAAGTCACCCTGTGCTA: 0.372 z-score
TCAGTTATCCATCTCAAACTGTGCTAG: 0.463 z-score
TTGCCTTTTGCTTTACTGATGTGCTAG: 0.889 z-score
TTAGGTTTCGGGACTGGGTAAGTGCTA: 3.97 z-score
TTAGGTCTCCTTTTCGTTTAGTGCTAG: 2.44 z-score
GACGGTTTCCTTTTCCTGAGGTGCTAG: 6.48 z-score
GTCGGACTGCTTATCCTGACGTGCTAG: -0.0731 z-score
TTAGGTCTCCTTATCCGTTAGTGCTAG: 0.867 z-score
GACGATTTCGGGTATCAAGACGTGCTA: 0.686 z-score
GACGGTTTCGACCCTGGGGACGTGCTA: 3.55 z-score
TCATGTCTGGATGTGCCACTGTGCTAG: -0.0605 z-score
TTAGAACTGAGTTTCGATTCGTGCTAG: 12 z-score
ATATACCTGAATATCTTCAGGTGCTAG: 0.49 z-score
TTAGGTTTCGGGTATCAGTTAGTGCTA: 7.32 z-score
TACGAACTGAGTATCGAGACGTGCTAG: 0.021 z-score
TCTGACCCCCTGCGCGGCAGGTGCTAG: -0.417 z-score
TTAGGTCTCTTTCTCCTTTAGTGCTAG: 1.61 z-score
TTAGGTTTCGGGTATCGGTTGGTGCTA: 7.08 z-score
TCAATTAGAATTTTCATACTGTGCTAG: 0.401 z-score

Block 2 — technique: RNA Bind-n-Seq; molecule type: RNA; sample: in vitro; concentration: not given; setting: RNA with constant flanks, ends assumed; relative to: input RNA pool; reading: higher = stronger binding; quantity: bound/input enrichment
Target: RING finger protein unkempt homolog, zinc fingers 1-6, GST-SBP tag (UNK, Homo sapiens, UniProt Q9C0B0, residues 30-357)
Chain of UniProt Q9C0B0 (30-357, looked up): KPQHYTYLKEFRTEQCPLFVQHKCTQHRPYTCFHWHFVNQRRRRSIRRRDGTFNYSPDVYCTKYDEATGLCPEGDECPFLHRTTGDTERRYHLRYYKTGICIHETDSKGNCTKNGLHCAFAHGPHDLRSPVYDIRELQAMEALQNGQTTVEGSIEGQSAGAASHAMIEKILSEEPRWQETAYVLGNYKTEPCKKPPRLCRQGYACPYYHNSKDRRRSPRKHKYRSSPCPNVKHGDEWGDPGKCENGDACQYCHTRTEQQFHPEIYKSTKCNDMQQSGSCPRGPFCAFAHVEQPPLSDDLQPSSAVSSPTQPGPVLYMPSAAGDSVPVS
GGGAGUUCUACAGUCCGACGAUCGUAUGAAUUUAUUUUCCUUUGCUACUCAUUACCUGACCACUUUCACUCCUCUAGAUACCCUCCGGAAUAAACCUGAACUGUUCCAAAUCGAUUCUUCCAAGAGCUUUGGUGUUGGUACCUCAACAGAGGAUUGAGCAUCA: 0.614 ratio
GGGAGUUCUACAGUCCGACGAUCUGUGAAAAUAUAUAAAUAUCACCCAAAAGGCUUUCUGCCCUAUAUUUUUAAAAUACAGAACCGUUAUAUUUGAAGUAGCCCUGGCCCUAGUUCUAUAGGGCUUGGCUAUUUAAUAUUUUUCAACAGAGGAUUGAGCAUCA: 0.157 ratio
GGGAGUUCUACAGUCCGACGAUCAUUGUUCACAGAGACCUCAAGGCUGAAAAUCUGUUAUUAGAUGCGGAUAUGAACAUUAAAACCGCAGAUUUUGGUUUUAGCAAUGAAUUUACUGUUGGCAGUAAACUAGACACGUUUUGUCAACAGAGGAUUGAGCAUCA: 0.619 ratio
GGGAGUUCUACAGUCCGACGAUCUGGUCCUCGGUUGCUCGUCAUGCAAGUGCUAUUUCCCGGAGUAUUUCUGCCUCAACAGUUCUCCGGCCUGUUGCUUCUAGAAGAACCUGUUUGACAGACAUACUGUGGUCUGCCUCUGCCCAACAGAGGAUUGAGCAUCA: 0.22 ratio
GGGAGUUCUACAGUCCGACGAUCAGAAGCUUCAUAAGGAAUAAACAAGUUGAAUAGAGAAAACACUGAUUGAUAAUAGGCAUUUCCGUGGUCUUUUUAAUGUUUUCUGCUGUGAAACAUUUCAAGAUUUAUUGAUUUUUUUUUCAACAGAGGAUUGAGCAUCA: 0.929 ratio
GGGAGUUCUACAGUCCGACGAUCUGGACAAACCAUAAAUUCAAUGUGUCUGCCACUCCAGAGCAAUACGUUCCUUAUUCCACCACCCGAAAGAAGAUUCAUGAAUGGGUUCCACCUUCGACACCUUACAAGUGACCGCAGUGACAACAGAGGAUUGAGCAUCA: 0.174 ratio
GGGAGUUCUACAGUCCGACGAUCGCUAUCUAUGUCCAAGCAUUGAUAUUUCGCCUAGAAGGAAAUAUCCAAGAAUCCCCCGAACUCUUCCAGACAUGUGCAGUUCUUAGUCCUCAGAGUGCUGAUAACCUCAAGCAGGUGGCCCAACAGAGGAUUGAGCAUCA: 0.468 ratio
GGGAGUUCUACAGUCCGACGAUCUUCGCCUGCGCCAAGCUCGCCCGCACCCCCGCUCUGAUCCGAGCUGGAUCCAGAGUUGCAUACCGACCAAUUUCUGCAUCAGUGUUAUCUCGGCCAGAGACUAGGACUGGAGAGGGCUCUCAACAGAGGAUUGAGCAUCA: 0.139 ratio
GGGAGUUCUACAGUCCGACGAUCCCAUGUUUAUUAGCUGGAGGUUUAUUAACAUAUAAAUCUCCUGCUACCUCACCCAUCCGCCGUAAUUCUCACAGGUCACUGGAUGGUUUAAGCAGAACUCAGGGUGAAAGUAUAUCAGAACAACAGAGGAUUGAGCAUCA: 0.109 ratio
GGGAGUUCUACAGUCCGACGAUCGAGGAUCCGUACCCACACAAGUUCCACGUGGACAUCUCACUCACUCAGUUCAUCCAAGAAUACCGUCACCUGCAGCCUGGGGACCACCUGACUGAUGUCACCCUCAAAGUGGCAGGCCGCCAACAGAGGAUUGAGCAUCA: 0.214 ratio
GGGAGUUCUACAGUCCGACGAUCAGAGAAGAGAUUCUGGCAUUUAUUAAGUCUUGCCAACAUGAAUGUGGUGGAAUAAGUGCCCGUAUCGGACAUGAUCCUCAUCUUUUAUACACUCUUAGUGCUGUCCAGAUUCUUACGCUGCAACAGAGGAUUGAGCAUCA: 0.139 ratio

Block 3 — technique: RNA Bind-n-Seq; molecule type: RNA; sample: in vitro; concentration: 365 nM; relative to: no-protein control; reading: higher = stronger binding; quantity: RBNS enrichment (R)
Target: RNA binding protein fox-1 homolog 2, RRM domain, GST-SBP tag (RBFOX2, Homo sapiens, UniProt O43251-10, residues 100-194)
Setting: natural RNA segment, single round, ends assumed
Residues (chain): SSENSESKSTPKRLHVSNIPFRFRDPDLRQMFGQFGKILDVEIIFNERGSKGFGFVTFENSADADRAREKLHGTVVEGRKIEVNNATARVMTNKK
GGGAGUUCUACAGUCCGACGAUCUUCGUAGUAUUUGAAAGAAUAAAUCAAGUUUUGAUUAUGCUAUAGGUUGAUUUUUGUGUUGAUCCAAAUCAGAAUAGCUAUUGAGUGUUUAAGUCAUGACUUUAUUUUUCUGGAAUUCUCGGGUGCCAA: 1.44
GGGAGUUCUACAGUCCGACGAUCUUCCGUCUCUGUGCUUGCUAAUAGUUUCACAAGUGGCUUGACUUUUUUAGAAGUAUUAUGUGGUAUUUUACUGUGUAUCACUUCUGUGGUAAACAUGUGAAGUCCUUUGGUGGAAUUCUCGGGUGCCAA: 0.304
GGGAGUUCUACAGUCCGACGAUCCCUGGCUUCCUACUUGGGUAUAGCAUGUCCAAACUGGGCUCUGAACACUACAGCCUGCCUUGGAGCUGGCCUAUCUCUGGGGGUGUUAGAGAGUUUGUGGGGAUCUCUUCUGGAAUUCUCGGGUGCCAA: 4.45
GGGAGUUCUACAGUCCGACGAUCCUAUUUGUUCAGAGAGGCCUUUUGUUUAAAUAUAAAUGUUUAAAUAUAAAUGUUUGUCUGGAUUGGCUAUAACAUGUCUUUCAGCAUUAGGCUUUUAAGAAACACAGGGUUGGAAUUCUCGGGUGCCAA: 0.455
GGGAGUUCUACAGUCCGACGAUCUGCCCACGCUCCUCCACCACGAGGCACUGACCUGCGUCGGGUGGUGACCGUGGCUGGCGGUCACGCCCUCAGCCCCUCCGGGCACACGUGCCGCCUGACCGGGCGACCCUUGGAAUUCUCGGGUGCCAA: 0.187
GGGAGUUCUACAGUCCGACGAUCGUGUUUUGACAUCAUGUAAACCUAAGCACGUAGAGAUGAUUCGGAUUUGACAAAAUAACAUUUGAGUAUCCGAUUCGCCAUCACCCCCUACCCCAGAAAUAGGACAAUUCUGGAAUUCUCGGGUGCCAA: 0.344
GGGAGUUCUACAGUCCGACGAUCAGCCCCCCACCUUGUCACCCUCAGGGCUUCCCCUUCUGUCCUCAUUCUUAGAGACUGCUUCUCCCAAACAUAACGCGUUAGCCAUGAAGGAGUCGGAGCCCUGGGUCCGAUGGAAUUCUCGGGUGCCAA: 0.51
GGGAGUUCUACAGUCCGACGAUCGCCUGUAAUCCCAACACUUUUGGGAGGUCCAGGCAGGAGGAUCACUUGGGCCCAGGAGGUCAAGCCUGCAGCGAGCUGAGAUCACACCACUGCACUCCAGCCUGGGGUGAUGGAAUUCUCGGGUGCCAA: 0.313
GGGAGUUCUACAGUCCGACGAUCAGGGAAGCAUUCAUGGUCCUCUGUUAUCAGCAGGGGUUUAUGUCACUUGCUGUCCGGUUUCCUAGGGGCUUCCUGUGCCCCUUCCCCAGCUAUCCUCCAGGUGGCUAGGGUGGAAUUCUCGGGUGCCAA: 0.251
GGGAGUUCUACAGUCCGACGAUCUGGGAACCACAGAGGAAGGAUGAGGUGGGAUGUGGAGGUCAGAGCAUCUCACGAGAGUCCCUCAGGCUCUGCAACACUAGAUUCGAAUAUGAGCCUAGGGUUUCCCCAACUGGAAUUCUCGGGUGCCAA: 0.488
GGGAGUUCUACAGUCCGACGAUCGUCAGUGCUCUGCUCUCACCCUGCCCAAGACUCACCUCCCUUCCCCUCUGCAGGCCGACGGCAGGAGGACAGUCGGGUGAUGGUGUAUUCUGCCCUGCGCAUCCCACCCGUGGAAUUCUCGGGUGCCAA: 0.379
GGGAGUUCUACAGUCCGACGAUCCUCUGAUAGGAUCGUGUCCUUCAGUCAAGAGCUCAUGUGAACUCCAGACUUUAUAUUACAUCUCUGAAGUUCUUGAUGUGGGGAAGAUUGACUUUUAUUCCAUUUUUAUAUGGAAUUCUCGGGUGCCAA: 0.518

Block 4 — technique: universal PBM; molecule type: double-stranded DNA, one strand shown; sample: in vitro; concentration: not given; reading: higher = stronger binding; quantity: E-score
Target: Sal-like protein 4, full length isoform B (SALL4, Homo sapiens, UniProt Q9UJQ4-2, residues 1-616)
Setting: 8-mer, flanks averaged, mean of replicates
CCGAGCAA: -0.293
ATATCCTG: 0.104
AATCGCAG: 0.0266
TCACAGAA: 0.152
AAATTAAC: 0.249
CCATGATA: 0.171
CTTCGTTC: -0.134
AAATACGG: 0.165
GGCTGGAA: -0.218
ACGCGAAC: -0.126
ACATGGAA: 0.17
CCCTGATA: 0.0178
ACGCTATC: -0.132
CCTTTTTA: 0.153
GCCCATCC: -0.128
ACACGACT: 0.0338

For quick reference, copied from above (block 4):
TCACAGAA: 0.152
AAATTAAC: 0.249
CCATGATA: 0.171
CTTCGTTC: -0.134
AAATACGG: 0.165
